Results collected from several papers.
Lines come from different studies, so protocols differ. ± gives the spread as reported.

The Cmax of `CC(C)C[C@H](NC(=O)[C@H](CCCCN)NC(=O)[C@H](C)NC(=O)[C@@H]1CCCN1C(=O)[C@@H]1CCCN1C(=O)[C@H](CCCCN)NC(=O)[C@H](CCCCN)NC(=O)[C@H](CO)NC(=O)[C@H](CCC(=O)O)NC(=O)[C@H](CCCCN)NC(=O)[C@H](CCCNC(=N)N)NC(=O)[C@H](CCC(N)=O)NC(=O)[C@H](CCC(N)=O)NC(=O)[C@@H](NC(=O)[C@H](CCCNC(=N)N)NC(=O)[C@H](CCC(N)=O)NC(=O)[C@H](Cc1cnc[nH]1)NC(=O)[C@H](CCC(=O)O)NC(=O)[C@@H]1CCCN1C(=O)[C@H](CO)NC(=O)[C@H](CC(C)C)NC(=O)[C@H](Cc1ccccc1)NC(=O)[C@H](CO)NC(=O)[C@H](CO)NC(=O)CN)C(C)C)C(=O)N[C@@H](CCC(N)=O)C(=O)N1CCC[C@H]1C(=O)N[C@@H](CCCNC(=N)N)C(=O)O` is reported as 15.9 ± 4.91 ng/mL (ELISA; healthy humans, both sexes, plasma; intravenous infusion, 4 µg/kg/h, 210 min).
With `CSCC[C@H](NC(=O)[C@H](CO)NC(=O)[C@H](Cc1ccc(O)cc1)NC(=O)[C@@H](N)CO)C(=O)N[C@@H](CCC(=O)O)C(=O)N[C@@H](Cc1c[nH]cn1)C(=O)N[C@@H](Cc1ccccc1)C(=O)N[C@@H](CCCNC(=N)N)C(=O)N[C@@H](Cc1c[nH]c2ccccc12)C(=O)NCC(=O)N[C@@H](CCCCN)C(=O)N1CCC[C@H]1C(=O)N[C@H](C(=O)NCC(=O)N[C@@H](CCCCN)C(=O)N[C@@H](CCCCN)C(=O)N[C@@H](CCCNC(=N)N)C(=O)N[C@@H](CCCNC(=N)N)C(=O)N1CCC[C@H]1C(=O)N[C@H](C(=O)N[C@@H](CCCCN)C(=O)N[C@H](C(=O)N[C@@H](Cc1ccc(O)cc1)C(=O)N1CCC[C@H]1C(=O)N[C@@H](CC(=O)O)C(=O)NCC(=O)N[C@@H](C)C(=O)N[C@@H](CCC(=O)O)C(=O)N[C@@H](CC(=O)O)C(=O)N[C@@H](CCC(=O)O)C(=O)N[C@@H](CC(C)C)C(=O)N[C@@H](C)C(=O)N[C@@H](CCC(=O)O)C(=O)N[C@@H](C)C(=O)N[C@@H](Cc1ccccc1)C(=O)N1CCC[C@H]1C(=O)N[C@@H](CC(C)C)C(=O)N[C@@H](CCC(=O)O)C(=O)N[C@@H](Cc1ccccc1)C(=O)O)C(C)C)C(C)C)C(C)C` the Cmax was 0.375 ng/mL (healthy human subjects, plasma; subcutaneous, 80 IU three times weekly, day 1, repository corticotropin injection).
For `CC(=CCC(O)C(C)=Cc1csc(C)n1)CC=CC(C)C(O)C(C)C(=O)C(C)(C)C(O)CC(=O)O` (centres unmarked), the Cmax was 11.8 ± 9.15 ng/mL (human, plasma; intravenous infusion, 20.0 mg/m2 KOS-1584, 3 h infusion, cycle 1).
For `CC1(C)C(=O)N(c2ccc(C#N)c(C(F)(F)F)c2)C(=S)N1c1ccc(C(=O)O)c(F)c1`, the Cmax was 130 ± 48.6 ng/mL (human, male, plasma; oral, 160 mg, single dose, after high-fat meal).
The Cmax of `CC(C)C[C@@H](NC(=O)[C@@H](Cc1ccccc1)NC(=O)[C@H](N)Cc1ccccc1)C(=O)N[C@H](CCCCN)C(=O)N1CCC(N)(C(=O)O)CC1` is reported as 61.9 ng/mL (human, plasma; intravenous, 5 µg/kg).
`CCCCCCCC(=O)OC[C@H](NC(=O)[C@H](CO)NC(=O)CN)C(=O)N[C@@H](Cc1ccccc1)C(=O)N[C@@H](CC(C)C)C(=O)N[C@@H](CO)C(=O)N1CCC[C@H]1C(=O)N[C@@H](CCC(=O)O)C(=O)N[C@@H](Cc1cnc[nH]1)C(=O)N[C@@H](CCC(N)=O)C(=O)N[C@@H](CCCNC(=N)N)C(=O)N[C@H](C(=O)N[C@@H](CCC(N)=O)C(=O)N[C@@H](CCC(N)=O)C(=O)N[C@@H](CCCNC(=N)N)C(=O)N[C@@H](CCCCN)C(=O)N[C@@H](CCC(=O)O)C(=O)N[C@@H](CO)C(=O)N[C@@H](CCCCN)C(=O)N[C@@H](CCCCN)C(=O)N1CCC[C@H]1C(=O)N1CCC[C@H]1C(=O)N[C@@H](C)C(=O)N[C@@H](CCCCN)C(=O)N[C@@H](CC(C)C)C(=O)N[C@@H](CCC(N)=O)C(=O)N1CCC[C@H]1C(=O)N[C@@H](CCCNC(=N)N)C(=O)O)C(C)C` gave a Cmax of 3.9 ± 3.5 ng/mL (two-site ELISA; human, plasma; intravenous infusion, 1 µg/kg/h, 65 min infusion).
`CCc1c2c(nc3ccc(OC4OC(C(=O)O)C(O)C(O)C4O)cc13)-c1cc3c(c(=O)n1C2)COC(=O)C3(O)CC` (centres unmarked) gave a Cmax of 10 ng/mL (human patients, plasma; intravenous, 12 mg/m2 of parent drug).
With `CC[C@H](C)C(=O)N1CCC(NC(=O)Nc2ccc(OC(F)(F)F)c(F)c2)CC1` the Cmax was 58.6 ng/mL (human; oral, 8 mg, fed, geometric LS mean).
